Experimental data from different studies.
Numbered parts are unrelated; each lists some results of a single study. Positions count from the first letter of the parent shown.

Block 1 — target: tungstate, free oxyanion; method: microfluidic competitive inhibition; sample: in vitro, cell-free expressed; concentration: not given; reading: lower = stronger binding; quantity: oxyanion analog dissociation constant
Setting: derived from inhibition constants, unchanged parent 2230 nM
Starting sequence: PafA, mature enzyme, eGFP fusion (Elizabethkingia meningoseptica, UniProt Q9KJX5); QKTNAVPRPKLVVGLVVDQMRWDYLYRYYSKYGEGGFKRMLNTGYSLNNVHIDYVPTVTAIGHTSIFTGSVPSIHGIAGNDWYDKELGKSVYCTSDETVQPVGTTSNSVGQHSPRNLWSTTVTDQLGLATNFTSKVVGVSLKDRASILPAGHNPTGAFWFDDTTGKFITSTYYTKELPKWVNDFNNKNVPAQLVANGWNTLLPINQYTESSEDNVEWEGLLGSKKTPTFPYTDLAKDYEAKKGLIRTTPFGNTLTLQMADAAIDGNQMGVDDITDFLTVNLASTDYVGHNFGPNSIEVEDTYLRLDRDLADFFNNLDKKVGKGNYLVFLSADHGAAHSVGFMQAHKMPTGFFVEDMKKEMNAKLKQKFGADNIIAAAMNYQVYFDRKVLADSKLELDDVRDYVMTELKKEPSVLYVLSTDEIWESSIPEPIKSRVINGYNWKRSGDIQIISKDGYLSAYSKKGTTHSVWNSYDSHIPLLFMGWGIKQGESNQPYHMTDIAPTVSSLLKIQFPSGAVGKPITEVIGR
N252V: 4.75 µM
S30V: 2.32 µM
Q343G: 1.67 µM
K225G: 1.99 µM
I520G: 1.14 µM

Block 2 — target: CCNF, cyclin fold, Cln2 fusion (human); method: yeast growth competition, sequencing; sample: yeast; setting: strong parent motif; baseline: not given; reading: higher = stronger binding; quantity: normalised enrichment score; starting sequence: viral docking peptide; KGVKRKLFAEDSS
KGVKRKLCAEDSS [F8C]: 0.948
KTVKRKLFAEDSS [G2T]: 8.12
KGVKRKLFAENSS [D11N]: 8.2
KGVKRKLFAEDKS [S12K]: 7.9
KGVKRKLFAEDPS [S12P]: 8.39
KGVKWKLFAEDSS [R5W]: 1.01
KGVNRKLFAEDSS [K4N]: 8.25
KGVKAKAFAEDSS [R5A L7A]: 0.401
KGVKRKLFMEDSS [A9M]: 8.47
KGNKRKLFAEDSS [V3N]: 0.756
KGVKRKLFWEDSS [A9W]: 8.36
KGVKRKAFAEDSS [L7A]: 0.711
KGVKRKLFAPDSS [E10P]: 7.55
AGVKRKLFAEDSS [K1A]: 7.84
KGVKRKLFTEDSS [A9T]: 7.46
KKVKRKLFAEDSS [G2K]: 7.82
KGVKYKLFAEDSS [R5Y]: 0.246

Block 3 — method: RNA Bind-n-Seq; molecule type: RNA; sample: in vitro; concentration: 20 nM; setting: 6-mer, flanks averaged, single round; together with: 150 mM KCl; baseline: input library; reading: higher = stronger binding; quantity: 6-mer enrichment (R)
Target: TAR DNA-binding protein 43, full length, His tag (TARDBP, Homo sapiens, UniProt Q13148, residues 1-414)
CGAACU: 0.64
GCGCUG: 1.37
UCAUGA: 0.627
AUCACU: 0.558
GUUCUG: 0.767
UUAAAG: 0.661
UACCGC: 0.646
CAUGAU: 0.638

Block 4 — effect on: binding; method: phage display NGS; molecule type: peptide; concentration: concentration not given; setting: panning round 2; baseline: input library; quantity: enrichment fold change
Target: UDP-N-acetylglucosamine--peptide N-acetylglucosaminyltransferase 110 kDa subunit (OGT, Homo sapiens, UniProt O15294)
Sequence of UniProt O15294 (whole entry, looked up): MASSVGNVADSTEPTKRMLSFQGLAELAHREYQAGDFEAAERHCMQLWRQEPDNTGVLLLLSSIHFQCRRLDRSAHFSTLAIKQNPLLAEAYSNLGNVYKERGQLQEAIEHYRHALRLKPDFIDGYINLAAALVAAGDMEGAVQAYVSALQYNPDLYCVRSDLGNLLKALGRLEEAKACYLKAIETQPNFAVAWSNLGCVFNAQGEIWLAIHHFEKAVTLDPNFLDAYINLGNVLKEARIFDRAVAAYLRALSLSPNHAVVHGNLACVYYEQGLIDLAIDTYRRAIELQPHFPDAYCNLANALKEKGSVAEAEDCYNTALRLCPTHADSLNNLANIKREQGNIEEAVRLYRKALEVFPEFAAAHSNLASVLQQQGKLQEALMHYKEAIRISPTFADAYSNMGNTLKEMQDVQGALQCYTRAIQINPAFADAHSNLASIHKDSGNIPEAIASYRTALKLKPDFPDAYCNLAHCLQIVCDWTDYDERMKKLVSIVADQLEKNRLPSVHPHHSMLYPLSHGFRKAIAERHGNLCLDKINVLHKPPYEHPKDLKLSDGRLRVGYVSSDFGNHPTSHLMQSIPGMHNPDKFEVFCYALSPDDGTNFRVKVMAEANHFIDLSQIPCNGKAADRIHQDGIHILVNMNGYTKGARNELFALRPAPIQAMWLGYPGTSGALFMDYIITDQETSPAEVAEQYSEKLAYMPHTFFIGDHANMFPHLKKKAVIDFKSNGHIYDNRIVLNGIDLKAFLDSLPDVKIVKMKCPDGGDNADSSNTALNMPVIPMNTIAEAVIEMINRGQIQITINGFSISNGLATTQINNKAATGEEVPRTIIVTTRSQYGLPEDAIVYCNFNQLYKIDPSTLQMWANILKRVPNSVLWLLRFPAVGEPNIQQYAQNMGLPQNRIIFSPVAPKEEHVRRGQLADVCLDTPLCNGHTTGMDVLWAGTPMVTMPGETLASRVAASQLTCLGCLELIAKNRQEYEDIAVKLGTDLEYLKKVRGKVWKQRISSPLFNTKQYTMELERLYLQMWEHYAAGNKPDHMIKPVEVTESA
TKFAPQYILEYSKVY: 5.79
STSYVPIYQIDYAHM: 8.96
QEHQYYRPKYLIEIY: 4.9
IEMHHQHHAHLLNR: 7.04

Some of these lines once more (block 3):
GUUCUG: 0.767
UUAAAG: 0.661
UACCGC: 0.646
